{"data": "Experimental data collected from several papers", "note": "Every numbered part comes from another study and shows a few of its results, in no order. Substitutions count along the parent as printed.", "chain of UniProt P23975 (whole entry, looked up)": "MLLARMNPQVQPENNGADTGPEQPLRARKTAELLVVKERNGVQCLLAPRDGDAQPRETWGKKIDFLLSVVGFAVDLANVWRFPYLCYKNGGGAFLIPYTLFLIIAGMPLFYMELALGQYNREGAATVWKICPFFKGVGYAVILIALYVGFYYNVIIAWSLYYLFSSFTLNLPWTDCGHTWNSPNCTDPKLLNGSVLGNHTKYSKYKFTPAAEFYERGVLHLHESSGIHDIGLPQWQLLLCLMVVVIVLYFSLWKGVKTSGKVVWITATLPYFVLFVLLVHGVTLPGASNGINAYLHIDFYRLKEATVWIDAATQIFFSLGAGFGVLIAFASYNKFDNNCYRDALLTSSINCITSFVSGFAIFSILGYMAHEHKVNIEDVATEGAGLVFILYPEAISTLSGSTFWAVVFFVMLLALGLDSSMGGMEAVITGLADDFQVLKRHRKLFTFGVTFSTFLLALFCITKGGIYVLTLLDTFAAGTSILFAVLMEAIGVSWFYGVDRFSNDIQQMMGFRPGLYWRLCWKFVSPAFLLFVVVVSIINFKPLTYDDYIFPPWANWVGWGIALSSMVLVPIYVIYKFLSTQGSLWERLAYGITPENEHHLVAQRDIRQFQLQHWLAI"}
{"data": "Series 1", "target": "tungstate, free oxyanion", "method": "microfluidic competitive inhibition", "sample": "in vitro, cell-free expressed", "concentration": "not given", "setting": "derived from inhibition constants, unchanged parent 2230 nM", "direction": "lower = stronger binding", "parent": "PafA, mature enzyme, eGFP fusion (Elizabethkingia meningoseptica, UniProt Q9KJX5); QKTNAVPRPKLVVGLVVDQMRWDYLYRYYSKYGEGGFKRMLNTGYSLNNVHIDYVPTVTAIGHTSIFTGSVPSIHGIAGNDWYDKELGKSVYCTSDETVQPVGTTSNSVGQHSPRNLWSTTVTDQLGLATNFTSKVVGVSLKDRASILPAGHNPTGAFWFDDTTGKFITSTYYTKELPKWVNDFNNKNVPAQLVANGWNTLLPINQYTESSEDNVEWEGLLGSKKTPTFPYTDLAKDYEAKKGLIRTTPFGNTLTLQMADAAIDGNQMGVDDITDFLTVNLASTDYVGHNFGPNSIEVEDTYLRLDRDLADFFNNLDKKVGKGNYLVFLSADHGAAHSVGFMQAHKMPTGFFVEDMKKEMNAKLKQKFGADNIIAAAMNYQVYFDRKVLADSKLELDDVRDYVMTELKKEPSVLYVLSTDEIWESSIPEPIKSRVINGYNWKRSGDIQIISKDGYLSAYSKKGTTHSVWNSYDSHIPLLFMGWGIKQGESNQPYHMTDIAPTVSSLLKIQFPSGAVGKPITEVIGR"}
{"Change": "L456G", "oxyanion analog dissociation constant": "1.27 µM"}
{"Change": "G165V", "oxyanion analog dissociation constant": "974 nM"}
{"Change": "Y472G", "oxyanion analog dissociation constant": "1.04 µM"}
{"Change": "G44A", "oxyanion analog dissociation constant": "1.7 µM"}
{"Change": "D124V", "oxyanion analog dissociation constant": "1.25 µM"}
{"Change": "G62A", "oxyanion analog dissociation constant": "83.4 nM"}
{"Change": "K486V", "oxyanion analog dissociation constant": "3.19 µM"}
{"Change": "G463A", "oxyanion analog dissociation constant": "863 nM"}
{"data": "Series 2", "target": "UDP-N-acetylglucosamine--peptide N-acetylglucosaminyltransferase 110 kDa subunit (OGT, Homo sapiens, UniProt O15294)", "effect on": "binding", "method": "phage display NGS", "molecule type": "peptide", "setting": "panning round 2", "reference": "input library", "chain of UniProt O15294 (whole entry, looked up)": "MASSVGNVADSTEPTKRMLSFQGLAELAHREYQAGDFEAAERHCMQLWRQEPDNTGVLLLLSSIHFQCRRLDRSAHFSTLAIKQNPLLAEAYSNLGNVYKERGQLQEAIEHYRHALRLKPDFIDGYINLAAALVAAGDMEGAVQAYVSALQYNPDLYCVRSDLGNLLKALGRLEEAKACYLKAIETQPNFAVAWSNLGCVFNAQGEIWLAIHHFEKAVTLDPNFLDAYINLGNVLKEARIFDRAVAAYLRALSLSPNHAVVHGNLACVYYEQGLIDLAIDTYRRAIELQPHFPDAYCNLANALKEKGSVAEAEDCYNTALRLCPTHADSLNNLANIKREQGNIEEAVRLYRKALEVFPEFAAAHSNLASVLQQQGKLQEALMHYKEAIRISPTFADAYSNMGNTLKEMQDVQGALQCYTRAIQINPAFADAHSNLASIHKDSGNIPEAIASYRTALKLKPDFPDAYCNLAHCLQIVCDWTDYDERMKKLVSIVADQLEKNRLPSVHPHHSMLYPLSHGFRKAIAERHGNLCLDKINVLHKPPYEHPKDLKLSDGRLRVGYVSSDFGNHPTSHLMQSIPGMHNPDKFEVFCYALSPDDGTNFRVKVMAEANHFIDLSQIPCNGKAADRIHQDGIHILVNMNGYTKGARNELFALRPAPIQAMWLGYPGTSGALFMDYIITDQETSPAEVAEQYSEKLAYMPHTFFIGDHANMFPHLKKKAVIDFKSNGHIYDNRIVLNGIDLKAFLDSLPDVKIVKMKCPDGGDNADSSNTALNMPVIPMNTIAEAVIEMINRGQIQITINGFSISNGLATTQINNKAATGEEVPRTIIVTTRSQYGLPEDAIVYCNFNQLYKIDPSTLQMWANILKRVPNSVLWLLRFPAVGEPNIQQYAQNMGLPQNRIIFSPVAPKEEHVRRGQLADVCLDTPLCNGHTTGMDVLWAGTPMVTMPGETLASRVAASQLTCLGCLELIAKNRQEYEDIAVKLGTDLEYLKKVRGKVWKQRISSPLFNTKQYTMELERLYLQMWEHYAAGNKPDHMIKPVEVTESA"}
{"Sequence": "MHHAFEGDHVWMHAG", "minimum log2 enrichment ratio": 2.05}
{"Sequence": "NTTAPQLVYPPMYQI", "minimum log2 enrichment ratio": 3.13}
{"Sequence": "TWHGSYKYRQHYAQN", "minimum log2 enrichment ratio": 2.28}
{"Sequence": "HTSIAHHLHIGTIQT", "minimum log2 enrichment ratio": 2.63}
{"Sequence": "HAQHTVQGNHQHVAH", "minimum log2 enrichment ratio": 4.38}
{"Sequence": "HTQPMEHNFHHYHF", "minimum log2 enrichment ratio": 2.46}
{"Sequence": "ANTLDYTPFYTIEY", "minimum log2 enrichment ratio": 2.13}
{"Sequence": "VKTYEPFYLIDMNRQ", "minimum log2 enrichment ratio": 1.88}
{"data": "Further values, each from its own experiment", "concentration": "10 µM"}
{"Compound": "CC(C)CC(N(C)C)C1(c2ccc(Cl)cc2)CCC1 (stereo not shown)", "tested on": "Plasmodium berghei", "assay": "inhibitor", "test system": "Huh-7, GFP-expressing, liver stage", "setting": "24 h", "how to read": "reference: untreated control", "endpoint": "infection rate", "value": "96.1%"}
{"Compound": "CC(=O)C1=C(C)N(c2cccc(C(F)(F)F)c2)C(=O)N[C@H]1c1ccc(C#N)nc1", "tested on": "SLC6A2 (Homo sapiens, UniProt P23975)", "assay": "cell-free assay", "endpoint": "inhibition", "value": "-8.06%"}
{"Compound": "C[C@@H]1O[C@@H](O[C@H]2C[C@@H](O)[C@]3(CO)[C@H]4[C@H](O)C[C@]5(C)[C@@H](C6=CC(=O)OC6)CC[C@]5(O)[C@@H]4CC[C@]3(O)C2)[C@H](O)[C@H](O)[C@H]1O", "tested on": "Plasmodium berghei", "assay": "inhibitor", "test system": "Huh-7, GFP-expressing, liver stage", "setting": "24 h", "how to read": "reference: untreated control", "endpoint": "infection rate", "value": "47.6%"}
{"note": "Some of these lines once more (further values, each from its own experiment):"}
{"Compound": "CC(C)CC(N(C)C)C1(c2ccc(Cl)cc2)CCC1 (stereo not shown)", "tested on": "Plasmodium berghei", "assay": "inhibitor", "test system": "Huh-7, GFP-expressing, liver stage", "setting": "24 h", "how to read": "reference: untreated control", "endpoint": "infection rate", "value": "96.1%"}
{"Compound": "CC(=O)C1=C(C)N(c2cccc(C(F)(F)F)c2)C(=O)N[C@H]1c1ccc(C#N)nc1", "tested on": "SLC6A2 (Homo sapiens, UniProt P23975)", "assay": "cell-free assay", "endpoint": "inhibition", "value": "-8.06%"}
{"Compound": "C[C@@H]1O[C@@H](O[C@H]2C[C@@H](O)[C@]3(CO)[C@H]4[C@H](O)C[C@]5(C)[C@@H](C6=CC(=O)OC6)CC[C@]5(O)[C@@H]4CC[C@]3(O)C2)[C@H](O)[C@H](O)[C@H]1O", "tested on": "Plasmodium berghei", "assay": "inhibitor", "test system": "Huh-7, GFP-expressing, liver stage", "setting": "24 h", "how to read": "reference: untreated control", "endpoint": "infection rate", "value": "47.6%"}
